Published values of several laboratories.
Several values in a cell are separate wells, animals, samples, runs or records. Numbers after ± are the reported error.

For `O=C(O)Cc1ccccc1Nc1c(Cl)cccc1Cl`, “lowest IC30 across channels” read greater than 30 µM (human seizure ion channel panel; ion current, automated patch clamp).
`C#CCOc1ccccc1N1CCN(C(=O)c2cccc(S(=O)(=O)n3cnc(C4CC4)n3)c2)CC1`: “ratio of Tyr24 modification” greater than 10 fold (AKR1C1 (human); label-free chemoproteomics LC-MS/MS; COLO 205; 100 µM, 4 h, 37 °C; baseline: AKR1C3 Tyr24 over AKR1C1 Tyr24).
For `Cc1cccc(C)c1NC(=O)C1CCCCN1C` (stereo not drawn), the Vmax was 1500 pmol/min/mg protein (H+/organic cation antiporter; cell uptake; hCMEC/D3).
With `Brc1ccc2nc(SCc3ccccc3)c(CNCc3ccc(CN4CCCC4)cc3)cc2c1` the inhibition was 80% (electron transport chain; proton pumping, ACMA quenching; Pseudomonas aeruginosa inverted membrane vesicles; 32 µg/mL, with: NADH).
`CCCN1C[C@H](CSC)C[C@@H]2c3cccc4[nH]cc(c34)C[C@H]21` — result for “lowest IC30 across channels”: 4.39 µM (human seizure ion channel panel; ion current, automated patch clamp).
Under “cells with nuclear reporter”, `CC(Nc1nc(N2CCCC2)nc2ccccc12)c1ccccc1` (stereo not drawn) is recorded as 89.3% (importin α/β1; cMyc nuclear import, high content imaging; HeLa Kyoto reporter; 5 µM, 2 h).
`C[n+]1cccc2cc(C=NNC(=O)c3ccc4ccc5ccc(C(=O)NN=Cc6ccc7c(ccc[n+]7C)c6)nc5c4n3)ccc21.[I-].[I-]` has a ΔTm of 35.9 ± 0.1 °C (telomeric G4 DNA hybrid-2; FRET melting; 1 µM, DNA 0.2 µM).
`CCN(C)C(=O)Oc1cccc([C@H](C)N(C)C)c1` gave a Vmax of 943 pmol/min/mg protein (H+/organic cation antiporter; cell uptake; hCMEC/D3).
For `COc1cccc2c1C(=O)c1c(O)c3c(c(O)c1C2=O)C[C@@](O)(C(=O)CO)C[C@@H]3O[C@H]1C[C@H](N)[C@H](O)[C@H](C)O1`, “concentration of maximal DNA damage” read 4 µM (calf thymus DNA; Tb3+ fluorescence; no further fluorescence increase above).
`C[C@H]1C[C@@H](N2C(=N)N[C@](C)(c3cccc(NC(=O)c4cccc(C#N)c4)c3Cl)CC2=O)CCO1` gave an IC50 of greater than 30 µM (human cardiac ion channels; ion current; panel other channels).
`CN(C)CCOC(c1ccccc1)c1ccccc1.Cn1c(=O)c2[nH]c(Cl)nc2n(C)c1=O` gave a Vmax of 2040 pmol/min/mg protein (H+/organic cation antiporter; cell uptake; hCMEC/D3).
`C[C@@H]1CC[C@H]2[C@@H](/C1=C/C[C@H]1[C@]3(C)CCC(=O)C(C)(C)O[C@H]3CC[C@]1(C)O)C(C)(C)CC[C@]2(C)O` has a paclitaxel remaining of 68.7% (P-glycoprotein human; inhibitor, efflux; KB-C2; 10 µM, 60 min, with: [3H]-paclitaxel).
`CC[S+]([O-])c1nc(-c2ccccc2)cc(C(F)(F)F)n1` (stereo not drawn) — result for “cells with nuclear reporter”: 0.63% and 0.82% and 3.72% and 2.78% (importin alpha/beta-1; cMyc nuclear import, high content imaging; HeLa Kyoto reporter; 50 µM, 2 h).
`Oc1ccccc1-c1n[nH]cc1-c1ccnc2ccccc12`: “log2 fold change” -0.01 (DUN1 (Candida albicans); kinase binding, MIB/MS competition; Candida albicans lysate; 1 µM; baseline: DMSO).
With `CC(CN(C)C)CN1c2ccccc2CCc2ccccc21` (stereo not drawn) the Vmax was 2120 pmol/min/mg protein (H+/organic cation antiporter; cell uptake; hCMEC/D3).
Under inhibition, `COC(=O)C[C@@H](NC(=O)[C@@H](Cc1ccccc1)NC(=O)C[C@@H](CC(C)C)NC(=O)[C@@H](CC(=O)OC)NC(=O)[C@@H](Cc1cccnc1)NC(=O)CCCCCNC(=O)CCCCCNC(=O)CCCc1cn(CCF)nn1)C(=O)COC(=O)c1ccc(C)s1` is recorded as “no effect” (caspase; enzyme activity; HeLa cells; 75 µM, 4 h, with: staurosporine 1 µM).
For `c1coc(-c2n[nH]cc2-c2ccnc3ccccc23)c1`, “log2 fold change” read 0.14 (PTK2 (Candida albicans); kinase binding, MIB/MS competition; Candida albicans lysate; 10 µM; baseline: DMSO).
`CC(C)C(=O)Oc1ccc(CO)cc1[C@H](CCN(C(C)C)C(C)C)c1ccccc1` has a Km of 47.8 µM (H+/organic cation antiporter; cell uptake; hCMEC/D3).
`c1ccc(CSc2nc3ccc(-c4ccccc4)cc3cc2CNCc2ccc(CN3CCCC3)cc2)cc1` has an inhibition of 12% (electron transport chain; proton pumping, ACMA quenching; Pseudomonas aeruginosa inverted membrane vesicles; 2 µg/mL, with: NADH).
For `CCn1cc(C(=O)O)c(=O)c2cc(F)c(N3CCNCC3)nc21`, “lowest IC30 across channels” read greater than 30 µM (human seizure ion channel panel; ion current, automated patch clamp).
With `CCN(CC)CCNC(=O)c1c(C)[nH]c(/C=C2\C(=O)Nc3ccc(F)cc32)c1C` the inhibition was 5% (PKCβII (human); kinase activity, inhibitor; 10 µM).
For `O=C(NN=Cc1ccc(C[n+]2ccccc2)cc1)c1ccc2ccc3ccc(C(=O)NN=Cc4ccc(C[n+]5ccccc5)cc4)nc3c2n1.[Br-].[Br-]`, the ΔTm was 36 °C (telomeric G4 DNA hybrid-2; FRET melting; 1 µM, DNA 0.2 µM).
`CCN1CCC(CCNCc2cc3cc(-c4ccccc4)ccc3nc2SCc2ccccc2)CC1` has an inhibition of 83% (electron transport chain; proton pumping, ACMA quenching; Pseudomonas aeruginosa inverted membrane vesicles; 32 µg/mL, with: NADH).
`CCCCN1CCCC[C@H]1C(=O)Nc1c(C)cccc1C` gave a Km of 96.1 µM (H+/organic cation antiporter; cell uptake; hCMEC/D3).
The inhibition of `CN1CCN(CCNCc2cc3cc(-c4ccccc4)ccc3nc2SCc2ccccc2)CC1` is reported as 13% (electron transport chain; proton pumping, ACMA quenching; Pseudomonas aeruginosa inverted membrane vesicles; 2 µg/mL, with: NADH).
`CC(C)(c1ccc(O)cc1)c1ccc(O)cc1` has a cross-reactivity of less than 0.1% (camel nanobody T2; binding, competitive ELISA; concentration not given).
`N[C@@H](Cc1ccc(O)c(O)c1)C(=O)O`: “lowest IC30 across channels” greater than 30 µM (human seizure ion channel panel; ion current, automated patch clamp).
The inhibition of `COc1cc2cc(CNCCN3CCN(C)CC3)c(SCc3ccccc3)nc2c(OC)c1OC` is reported as 11% (electron transport chain; proton pumping, ACMA quenching; Pseudomonas aeruginosa inverted membrane vesicles; 2 µg/mL, with: NADH).
For `O=C1NC(=O)C(c2ccccc2)(c2ccccc2)N1`, “lowest IC30 across channels” read greater than 30 µM (human seizure ion channel panel; ion current, automated patch clamp).
The IC50 of `C=CC(=O)N1CCC(C(=O)NCC(=O)N2CCN(c3nc(-c4cnc(N)nc4C(F)F)nc(N4CCOCC4)n3)CC2)CC1` is reported as 0.0813 µM (PKB/Akt; Ser473 phosphorylation, in-cell western; SK-OV-3).
With `CN1CCN(CCNCc2cc3ccccc3nc2SCc2ccccc2)CC1` the inhibition was 13% (electron transport chain; proton pumping, ACMA quenching; Pseudomonas aeruginosa inverted membrane vesicles; 2 µg/mL, with: NADH).
For `CCCCCCCC(=O)OC[C@H](COP(=O)(O)O[C@@H]1[C@H](O)[C@H](O)[C@@H](OP(=O)(O)O)[C@H](OP(=O)(O)O)[C@H]1O)OC(=O)CCCCCCC`, “efficacy factor E3” read 0.28 (Kv7.2/Kv7.3(EEE) mutant channel; channel open probability, activator, fitted PIP2 binding model; model 4, K3 constrained; baseline: channel without bound PIP2).
Under “limit of detection”, `COc1nc(NCc2cn(-c3ccc(C(=O)Nc4ccc(C(F)(F)F)cc4)cc3)nn2)nc(OC)n1` is recorded as 1.87 nM (calf thymus DNA; DNA damage, Tb3+ fluorescence; 24 h).
Under “stability constant difference”, `CC(C)n1cc(C(C)(C)C)nc1CN1CCN(Cc2nc(C(C)(C)C)cn2C(C)C)CCN(Cc2nc(C(C)(C)C)cn2C(C)C)CC1` is recorded as 3.3 orders of magnitude (Zn2+; potentiometric titration; baseline: Zn2+ over Mn2+).
`CCS(=O)(=O)c1nc(C2CC2)cc(C(F)(F)F)n1` — result for “cells with nuclear reporter”: 91.5% and 93.8% and 65.8% and 96.9% (importin alpha/beta-1; cMyc nuclear import, high content imaging; HeLa Kyoto reporter; 0.5 µM, 2 h).
`COc1nc(NCc2cn(-c3ccc(C(=O)Nc4ccccc4)cc3)nn2)nc(OC)n1`: “limit of detection” 2.67 nM (calf thymus DNA; DNA damage, Tb3+ fluorescence; 24 h).
`NCCNC(=O)c1ccc(Cl)cn1` — result for “lowest IC30 across channels”: greater than 30 µM (human seizure ion channel panel; ion current, automated patch clamp).
For `c1ccc(CSc2nc3ccccc3cc2CNCc2ccc(N3CCCCC3)cc2)cc1`, the inhibition was 86% (electron transport chain; proton pumping, ACMA quenching; Pseudomonas aeruginosa inverted membrane vesicles; 32 µg/mL, with: NADH).
With `CN(C)CCOC(C)(c1ccccc1)c1ccccn1` (stereo not drawn) the Km was 30 µM (H+/organic cation antiporter; cell uptake; hCMEC/D3).
For `CC(C)c1cn(C(C)C)c(CN2CCN(Cc3nc(C(C)C)cn3C(C)C)CCN(Cc3nc(C(C)C)cn3C(C)C)CC2)n1`, the pZn was greater than 12.4 (Zn2+; potentiometric titration; pH 7.4, ligand and metal 2 mM).
The Km of `CCCOC(C(=O)OC1CCN(C)CC1)(c1ccccc1)c1ccccc1` is reported as 12.3 µM (H+/organic cation antiporter; cell uptake; hCMEC/D3).
Under “embryos arrested at zygote stage”, `O=S(=O)(NCCNC/C=C/c1ccc(Br)cc1)c1cccc2cnccc12` is recorded as 0% (PKA; inhibitor; mouse zygotes; 20 µM, Post hCG injection, 96 h, early embryonic development).

For quick reference, copied from above:
`CCN1CCC(CCNCc2cc3cc(-c4ccccc4)ccc3nc2SCc2ccccc2)CC1` has an inhibition of 83% (electron transport chain; proton pumping, ACMA quenching; Pseudomonas aeruginosa inverted membrane vesicles; 32 µg/mL, with: NADH).
The inhibition of `CN1CCN(CCNCc2cc3cc(-c4ccccc4)ccc3nc2SCc2ccccc2)CC1` is reported as 13% (electron transport chain; proton pumping, ACMA quenching; Pseudomonas aeruginosa inverted membrane vesicles; 2 µg/mL, with: NADH).
With `CN1CCN(CCNCc2cc3ccccc3nc2SCc2ccccc2)CC1` the inhibition was 13% (electron transport chain; proton pumping, ACMA quenching; Pseudomonas aeruginosa inverted membrane vesicles; 2 µg/mL, with: NADH).
